{"data": "Experimental data pooled from the literature", "FAP": "Prolyl endopeptidase FAP (FAP, Homo sapiens, UniProt Q12884)", "B1": "vapC A76S (Salmonella typhimurium, UniProt Q8ZM86); chain MLKFMLDTNTCIFTIKNKPEHIRERFNLNTSRMCISSITLMELIYGAEKSLAPERNLAVVEGFISRLEVLDYDTQSAIHTGQIRAELARKGTPVGPYDQMIAGHAGSRGLVVVTNNLREFERIPGIRIEDWC", "B2": "enzyme (Bacillus pumilus, UniProt A8FFI9); chain EARSIAWSVDEFFKNREGTFVIQEVKEKSPWVYNKKRAKERFAPQSTFKVANALIGLQTGAVRDEYDIKYWDGVKREIDNWNRDHTLGSGMRDSVVWYYQAMARDIGEERMNHWVKAIHYGNKDISGGIDQFWLSSTLRISPIEQVRFLKQLYEETLPFDLKNMRTVKRMMVQEEEKHATLYGKTGSGSDIGWYVGFIKHEHKTYILATNIKGTGIEAKDITYRILKKYHLMEASV", "note": "Protocols differ between the studies behind these lines. Numbers after ± are the reported error.", "chain of UniProt Q12884 (whole entry, looked up)": "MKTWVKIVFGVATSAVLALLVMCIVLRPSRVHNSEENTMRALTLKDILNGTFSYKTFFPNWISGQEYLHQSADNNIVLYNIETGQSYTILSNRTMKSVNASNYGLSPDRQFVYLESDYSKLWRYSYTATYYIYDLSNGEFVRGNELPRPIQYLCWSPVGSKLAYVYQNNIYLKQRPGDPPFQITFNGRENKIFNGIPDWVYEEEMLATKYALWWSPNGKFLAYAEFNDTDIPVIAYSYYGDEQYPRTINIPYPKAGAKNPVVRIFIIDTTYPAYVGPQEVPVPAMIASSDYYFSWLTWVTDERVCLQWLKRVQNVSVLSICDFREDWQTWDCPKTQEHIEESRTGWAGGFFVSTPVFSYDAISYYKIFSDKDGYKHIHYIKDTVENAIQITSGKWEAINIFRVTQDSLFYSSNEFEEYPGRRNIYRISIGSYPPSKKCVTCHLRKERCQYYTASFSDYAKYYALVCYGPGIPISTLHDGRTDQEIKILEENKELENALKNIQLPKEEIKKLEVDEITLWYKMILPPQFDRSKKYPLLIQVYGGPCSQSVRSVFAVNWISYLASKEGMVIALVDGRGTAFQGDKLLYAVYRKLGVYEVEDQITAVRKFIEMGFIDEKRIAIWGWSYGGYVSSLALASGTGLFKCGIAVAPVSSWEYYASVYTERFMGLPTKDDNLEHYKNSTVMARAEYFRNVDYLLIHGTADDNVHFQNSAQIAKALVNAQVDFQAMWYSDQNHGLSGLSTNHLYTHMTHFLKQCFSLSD", "chain of UniProt P97321 (whole entry, looked up)": "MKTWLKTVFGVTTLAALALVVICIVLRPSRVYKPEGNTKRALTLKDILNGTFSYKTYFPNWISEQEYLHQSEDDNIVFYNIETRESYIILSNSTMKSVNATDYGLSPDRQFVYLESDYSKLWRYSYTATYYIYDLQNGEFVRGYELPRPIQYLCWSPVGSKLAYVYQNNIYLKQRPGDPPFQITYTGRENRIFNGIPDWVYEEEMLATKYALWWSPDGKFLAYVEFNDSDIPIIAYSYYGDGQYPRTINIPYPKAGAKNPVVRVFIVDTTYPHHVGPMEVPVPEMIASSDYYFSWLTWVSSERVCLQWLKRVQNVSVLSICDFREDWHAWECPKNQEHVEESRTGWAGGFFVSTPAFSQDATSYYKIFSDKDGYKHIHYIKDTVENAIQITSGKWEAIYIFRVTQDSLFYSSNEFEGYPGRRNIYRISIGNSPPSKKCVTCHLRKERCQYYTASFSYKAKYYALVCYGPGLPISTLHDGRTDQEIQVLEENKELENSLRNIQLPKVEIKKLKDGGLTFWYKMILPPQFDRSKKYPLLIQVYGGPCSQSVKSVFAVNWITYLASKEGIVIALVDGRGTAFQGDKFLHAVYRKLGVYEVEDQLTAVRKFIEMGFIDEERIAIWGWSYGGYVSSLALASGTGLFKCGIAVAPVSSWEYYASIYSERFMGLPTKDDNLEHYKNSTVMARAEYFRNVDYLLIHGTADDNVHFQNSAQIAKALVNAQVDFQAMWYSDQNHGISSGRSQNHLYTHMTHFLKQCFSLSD"}
{"Substance": "B1 (vapC A76S)", "tested on": "itself", "test": "lacZ reporter", "how to read": "baseline: wild type, higher = more transcription", "measurement": "vapBC transcription", "result": "1.9 fold"}
{"Substance": "B2 (enzyme)", "tested on": "[H][C@]12SCC(COC(C)=O)=C(C(=O)O)N1C(=O)[C@H]2NC(=O)CCC[C@@H](N)C(=O)O", "test": "steady-state kinetics", "conditions": "pH 7", "measurement": "kcat/Km", "result": "470 ± 40 M⁻¹ s⁻¹"}
{"Substance": "C=Cc1c(C)c2cc3nc(c4c5[nH]c(cc6nc(cc1[nH]2)C(C)=C6CC)c(C)c5C(=O)C4)[C@@H](CCC(=O)N[C@H](C(=O)N[C@@H](CO)C(=O)NCC(=O)N1CCC[C@H]1C(=O)N[C@@H](CC(N)=O)C(=O)N[C@@H](CCC(N)=O)C(=O)N[C@@H](CCC(=O)O)C(=O)N[C@@H](CCC(N)=O)C(=O)N[C@@H](CCCCNC(=O)CCCN(C)c1ccc(N=Nc2ccc4nc5ccc(N(CC)CC)cc5[n+](-c5ccccc5)c4c2)cc1)C(N)=O)[C@@H](C)O)[C@@H]3C", "tested on": "Prolyl endopeptidase FAP (Fap, Mus musculus, UniProt P97321)", "test": "substrate", "conditions": "0.1 to 6 µM, pH 7.37, 37 °C", "measurement": "Vmax", "result": "36 ± 2 pmol/min"}
{"Substance": "N=C(N)NCCC[C@@H]1NC(=O)[C@H](CCCCNC(=O)[C@H](CC(=O)O)NC(=O)[C@H](CC(=O)O)NC(=O)[C@H](CC(=O)O)NC(=O)CC[C@H](NC(=O)CCOCCOCCOCCOCCNC(=O)c2ccc(NN)nc2)C(=O)N[C@@H](CC(=O)O)C(=O)N[C@@H](CC(=O)O)C(=O)N[C@@H](CC(=O)O)C(=O)NCCCC[C@@H]2NC(=O)[C@@H](Cc3ccccc3)NC(=O)[C@H](CC(=O)O)NC(=O)CNC(=O)[C@H](CCCNC(=N)N)NC2=O)NC(=O)[C@@H](Cc2ccccc2)NC(=O)[C@H](CC(=O)O)NC(=O)CNC1=O [technetium-99m labelled]", "test": "γ-counting", "system": "female athymic nude mice, U-87 MG xenograft, blood", "conditions": "intravenous, 2 h", "measurement": "tissue uptake", "result": "0.19 ± 0.09 %ID/g"}
{"Substance": "CC(=O)N(O)CCCCCNC(=O)CCC(=O)N(O)CCCCCNC(=O)CCC(=O)N(O)CCCCCNC(=S)Nc1ccc(NC(=S)NCCOCCOCCOCCOCCC(=O)N[C@@H](CCC(=O)NCCOCCOCCOCCOCCC(=O)NCCCC[C@@H]2NC(=O)[C@@H](Cc3ccccc3)NC(=O)[C@H](CC(=O)O)NC(=O)CNC(=O)[C@H](CCCNC(=N)N)NC2=O)C(=O)NCCOCCOCCOCCOCCC(=O)NCCCC[C@@H]2NC(=O)[C@@H](Cc3ccccc3)NC(=O)[C@H](CC(=O)O)NC(=O)CNC(=O)[C@H](CCCNC(=N)N)NC2=O)cc1 [zirconium-89 labelled]", "system": "athymic nude mice female tumour-bearing, spleen", "conditions": "intravenous, dose not given, 4 h, added: unlabelled c(RGDfK) 300 µg", "measurement": "tissue uptake", "result": "9.5 ± 1.3 %ID/g"}
{"Substance": "COc1cccc2c1C(=O)c1c(O)c3c(c(O)c1C2=O)C[C@@](O)(C(=O)CO)C[C@@H]3O[C@H]1C[C@H](NC(=O)[C@@H]2CCCN2C(=O)CNC(=O)[C@H](CC(C)C)NC(=O)[C@H](C)NC(=O)CP(=O)(O)O)[C@H](O)[C@H](C)O1", "system": "mouse, E0771 tumour-bearing, heart", "conditions": "intravenous, 92 µmol/kg", "measurement": "AUC", "result": "3.7 µM·h"}
{"Substance": "CC[C@H]1CN2CCc3cc(OC)c(OC)cc3[C@@H]2C[C@@H]1C[C@@H]1c2cc(OC)c(OC)cc2CCN1C(=O)OCc1ccc(NC(=O)[C@@H]2CCCN2C(=O)CNC(=O)[C@H](C)NC(=O)[C@@H]2CCCN2C(=O)CNC(=O)[C@H](CO)NC(=O)[C@H](C)NC(C)=O)cc1", "tested on": "FAP", "test": "substrate, HPLC-MS", "conditions": "250 µM, 24 h, pH 7.8, 37 °C, 2.5% DMSO", "measurement": "hydrolysis to emetine", "result": "0%"}
{"Substance": "melittin", "test": "membrane partitioning, ITC enthalpy vs temperature", "system": "POPC/POPG LUVs 50:50%", "conditions": "concentration not given, 25 to 60 °C", "measurement": "heat capacity change", "result": "-0.58 kcal/mol/K"}
{"Substance": "CC[C@H]1CN2CCc3cc(OC)c(OC)cc3[C@@H]2C[C@@H]1C[C@@H]1c2cc(OC)c(OC)cc2CCN1C(=O)[C@H](C)NC(=O)[C@@H]1CCCN1C(=O)CNC(=O)[C@H](C)NC(=O)[C@@H]1CCCN1C(=O)CNC(=O)[C@H](CO)NC(=O)[C@H](C)NC(C)=O", "tested on": "FAP", "test": "substrate, HPLC-MS", "conditions": "250 µM, 24 h, pH 7.8, 37 °C, 2.5% DMSO", "measurement": "hydrolysis to emetine", "result": "0%"}
{"Substance": "OXA-48 (Klebsiella pneumoniae, UniProt Q6XEC0)", "tested on": "C[C@@H](O)[C@H]1C(=O)N2C(C(=O)O)=C(SCCN=CN)C[C@H]12", "test": "steady-state kinetics", "conditions": "pH 7.2, 30 °C", "measurement": "kcat/Km", "result": "900000 M⁻¹ s⁻¹"}
{"Substance": "N=C(N)NCCC[C@@H]1NC(=O)[C@H](CCCCNC(=O)CNC(=O)CNC(=O)CNC(=O)CC[C@H](NC(=O)CCOCCOCCOCCOCCNC(=O)c2ccc(NN)nc2)C(=O)NCC(=O)NCC(=O)NCC(=O)NCCCC[C@@H]2NC(=O)[C@@H](Cc3ccccc3)NC(=O)[C@H](CC(=O)O)NC(=O)CNC(=O)[C@H](CCCNC(=N)N)NC2=O)NC(=O)[C@@H](Cc2ccccc2)NC(=O)[C@H](CC(=O)O)NC(=O)CNC1=O [technetium-99m labelled]", "test": "γ-counting", "system": "female athymic nude mice, U-87 MG xenograft, kidneys", "conditions": "intravenous, 1 h", "measurement": "tissue uptake", "result": "10.7 ± 1 %ID/g"}
{"note": "Excerpt of the above:"}
{"Substance": "CC(=O)N(O)CCCCCNC(=O)CCC(=O)N(O)CCCCCNC(=O)CCC(=O)N(O)CCCCCNC(=S)Nc1ccc(NC(=S)NCCOCCOCCOCCOCCC(=O)N[C@@H](CCC(=O)NCCOCCOCCOCCOCCC(=O)NCCCC[C@@H]2NC(=O)[C@@H](Cc3ccccc3)NC(=O)[C@H](CC(=O)O)NC(=O)CNC(=O)[C@H](CCCNC(=N)N)NC2=O)C(=O)NCCOCCOCCOCCOCCC(=O)NCCCC[C@@H]2NC(=O)[C@@H](Cc3ccccc3)NC(=O)[C@H](CC(=O)O)NC(=O)CNC(=O)[C@H](CCCNC(=N)N)NC2=O)cc1 [zirconium-89 labelled]", "system": "athymic nude mice female tumour-bearing, spleen", "conditions": "intravenous, dose not given, 4 h, added: unlabelled c(RGDfK) 300 µg", "measurement": "tissue uptake", "result": "9.5 ± 1.3 %ID/g"}
